Assay results pooled from the literature.
Lines come from different studies, so protocols differ. Several values in a cell are separate wells, animals, samples, runs or records. ± gives the spread as reported.

| SMILES | test | test system | conditions | scale | measurement | value |
| --- | --- | --- | --- | --- | --- | --- |
| CSCC[C@@H]1NC(=O)[C@@H]2CSSC[C@H](NC(=O)[C@H](CO)NC(=O)[C@H](C)N)C(=O)N[C@@H](CCCNC(=N)N)C(=O)N[C@@H]([C@@H](C)O)C(=O)N3CCC[C@H]3C(=O)N[C@@H](CCCCN)C(=O)N[C@@H](CC(=O)O)C(=O)N[C@H]3CSSC[C@H](NC(=O)[C@H](CCCCN)NC(=O)[C@H](CCCNC(=N)N)NC(=O)[C@H](CC(N)=O)NC1=O)C(=O)N[C@@H](CCCCN)C(=O)N[C@H]1CSSC[C@H](NC(=O)[C@@H]4CCCN4C(=O)[C@H](CC(=O)O)NC(=O)[C@H](C)NC3=O)C(=O)N[C@@H](C)C(=O)N[C@@H](CCCCN)C(=O)N[C@@H](CCC(=O)O)C(=O)N[C@@H]([C@@H](C)O)C(=O)NCC(=O)N[C@@H](CSSC[C@@H](C(N)=O)NC(=O)[C@H](CCCNC(=N)N)NC(=O)[C@H](CC(N)=O)NC1=O)C(=O)N1CCC[C@H]1C(=O)N[C@@H](Cc1ccc(O)cc1)C(=O)NCC(=O)N[C@@H](CCCCN)C(=O)N2 | – | DA rat pristane-induced arthritis, serum | subcutaneous, 0.1 mg/kg single dose at onset, 21 days | – | Glucose | 124 mg/dL |
| COC(=O)C[C@H](NC(=O)[C@H](C)NC(=O)[C@@H](NC(=O)[C@H](CC(=O)OC)NC(=O)[C@@H](NC(=O)c1ccc2ccccc2n1)C(C)C)C(C)C)C(=O)COc1c(F)cccc1F | – | rat pups | 1 mg/kg, 1 h | – | arterial pH | 7.42 ± 0.02 |
| CC(C)C[C@H](NC(=O)[C@H](CCCCN)NC(=O)[C@H](CCC(=O)O)NC(=O)[C@H](C)NC(=O)[C@@H](NC(=O)[C@H](CCCCN)NC(=O)[C@H](CC(=O)O)NC(=O)[C@H](Cc1ccc(O)cc1)NC(=O)[C@H](Cc1ccccc1)NC(=O)[C@H](C)NC(=O)[C@H](CCCCN)NC(=O)[C@H](CC(C)C)NC(=O)[C@H](Cc1c[nH]c2ccccc12)NC(=O)[C@@H](N)CC(=O)O)C(C)C)C(=O)N[C@@H](CCCCN)C(=O)N[C@@H](CCC(=O)O)C(=O)N[C@@H](C)C(=O)N[C@@H](Cc1ccccc1)C(=O)N1CCC[C@H]1C(=O)N[C@@H](CC(=O)O)C(=O)N[C@@H](Cc1c[nH]c2ccccc12)C(=O)N[C@@H](C)C(=O)N[C@@H](CCCCN)C(=O)N[C@@H](C)C(=O)N[C@@H](C)C(=O)N[C@@H](Cc1ccc(O)cc1)C(=O)N[C@@H](CC(=O)O)C(=O)N[C@@H](CCCCN)C(=O)N[C@@H](C)C(=O)N[C@@H](C)C(=O)N[C@@H](CCC(=O)O)C(=O)N[C@@H](CCCCN)C(=O)N[C@@H](C)C(=O)N[C@@H](CCCCN)C(=O)N[C@@H](CCC(=O)O)C(=O)N[C@@H](C)C(=O)N[C@@H](C)C(=O)O | – | cynomolgus monkey male, plasma | intravenous infusion, 25 mg/kg every other day, day 27 | – | AUC(0-last) | 1990 µg·h/mL |
| Cc1ccc(C(C)C)cc1.Cn1ccnc1CNCCNc1ccnc2cc(Cl)ccc12.[Cl-].[Cl][Ru+] | shake-flask method | water/n-octanol | pH 4.9 | – | distribution coefficient D | 0.007 ± 0.002 |
| CC(C)C[C@@H](NC(=O)[C@@H](C)NC(=O)[C@@H](CC(C)C)NC(=O)[C@@H](CCCCN)NC(=O)[C@@H](CCCCN)NC(=O)[C@@H](CC(C)C)NC(=O)[C@@H](C)NC(=O)[C@H]1CCCN1C(=O)[C@@H](CC(C)C)NC(=O)[C@@H](Cc1c[nH]c2ccccc12)NC(=O)[C@@H](CCCCN)NC(=O)[C@@H](CCCCN)NC(=O)[C@@H](CC(C)C)NC(=O)[C@@H](C)NC(=O)[C@@H](CC(C)C)NC(=O)[C@@H](CC(C)C)NC(=O)[C@@H](C)NC(=O)[C@@H](CC(C)C)NC(=O)[C@@H](CCCCN)NC(=O)[C@H](N)CCCCN)C(=O)N[C@H](CC(C)C)C(=O)N[C@H](C)C(=O)N[C@H](CC(C)C)C(=O)N[C@H](CCCCN)C(=O)N[C@H](CCCCN)C(N)=O | haemolysis | human erythrocytes | 30 min, pH 7.4, 37 °C | – | HC50 | 11.66 ± 0.03 µM |
| CN(C)c1ccc(C(=O)NCCCCN2CCN(c3ccccc3O[11CH3])CC2)cc1 | – | male Sprague Dawley rat, kidney | iv, dose not given, together with: cyclosporin A pretreatment | baseline: cyclosporin A over untreated | uptake ratio | 0.97 |
| O=C(c1ccc(F)cc1)C1CCN(C2Cc3c(cccc3OCC[18F])CC2O)CC1 (single isomer, unassigned; (-)) | – | male Sprague-Dawley rat, striatum | intravenous, 120 min | – | brain uptake | 0.761 %ID/g |
| CN(C)C(CNC(=O)Nc1cc(C(F)(F)F)ccc1N1CCOCC1)c1ccncc1 (stereo not shown) | – | mouse, serum | intraperitoneal, 180 mg/kg single dose | – | serum albumin | 2.8 g/dL |
| CC[C@H](C)[C@H](NC(=O)[C@H](CCC(=O)O)NC(=O)[C@H](CCC(=O)O)NC(=O)[C@H](Cc1ccccc1)NC(=O)[C@H](CC(=O)O)NC(=O)CNC(=O)[C@H](CC(N)=O)NC(=O)CNC(=O)CNC(=O)CNC(=O)CNC(=O)[C@@H]1CCCN1C(=O)[C@H](CCCNC(=N)N)NC(=O)[C@@H]1CCCN1C(=O)[C@H](N)Cc1ccccc1)C(=O)N1CCC[C@H]1C(=O)N[C@@H](CCC(=O)O)C(=O)N[C@@H](CCC(=O)O)C(=O)N[C@@H](Cc1ccc(O)cc1)C(=O)N[C@@H](CC(C)C)C(=O)O | LC-MS/MS | processed plasma samples | 7 h, autosampler stability, nominal 3.0 ng/mL | – | concentration | 2.95 ± 0.1 ng/mL |
| CSCC[C@H](NC(=O)CNC(=O)[C@H](CC(=O)O)NC(=O)[C@@H](NC(=O)[C@@H](NC(=O)[C@@H](NC(=O)CNC(=O)[C@H](CCC(N)=O)NC(=O)[C@H](CCSC)NC(=O)[C@H](CC(=O)O)NC(=O)[C@H](C)NC(=O)[C@H](C)NC(=O)[C@@H](NC(=O)[C@H](CO)NC(=O)[C@@H](N)CC(C)C)[C@@H](C)O)C(C)C)C(C)C)[C@@H](C)O)C(=O)N[C@@H](C)C(=O)N[C@@H](CO)C(=O)NCC(=O)N[C@@H](CC(C)C)C(=O)N[C@@H](CC(=O)O)C(=O)N[C@@H](CCCCN)C(=O)N[C@@H](CC(=O)O)C(=O)N[C@@H](Cc1ccc(O)cc1)C(=O)N[C@@H](CC(C)C)C(=O)N[C@@H](CCCCN)C(=O)N1CCC[C@H]1C(=O)N[C@@H](CC(=O)O)C(=O)N[C@@H](CC(=O)O)C(=O)O | – | human, serum | intravenous, 2.5 mg/kg, patients, infusion | – | Cmax | 7680 ng/mL |
| COc1nc(CC=C(C)CC=CC(C)=CC(C)C(OC2OC(CO)C(O)C(O)C2O)C(C)=CCO)c(C)c(O)c1OC (stereo not shown) | – | C57BL/6 mice, acute kidney injury, kidney | 2 mg/kg, 150 min | – | concentration | 1.28 ± 0.44 ng/mL |
| NC(=O)[C@H](Cc1ccccc1)N[11C](=O)OCc1ccccc1 | dynamic PET | Wistar rat, male, whole brain | intravenous, 3 min | – | SUV max | 1.5 |
| CC[C@H](C)C(=O)N1CCC(NC(=O)Nc2ccc(OC(F)(F)F)c(F)c2)CC1 | – | healthy volunteers | oral, 0.5 mg single dose | – | subjects with insomnia TEAE | 0% |
| CS(C)(=O)=Nc1ccc(-c2ccc(-c3nc4cc(O[C@@H]5CO[C@H]6[C@@H]5OC[C@H]6O)[nH]c4cc3F)cc2)cc1 | – | female C57BL/6 mouse, plasma | intravenous, 3 mg/kg | – | clearance | 18 mL/min/kg |
| CCCC[C@H]1C(=O)N(C)[C@@H](CCCC)C(=O)N[C@@H](CC(C)C)C(=O)N[C@H](C(=O)NCC(N)=O)CSCC(=O)N[C@@H](Cc2ccc(O)cc2)C(=O)N2CCCC[C@H]2C(=O)N[C@@H](CC(N)=O)C(=O)N2C[C@H](O)C[C@H]2C(=O)N[C@@H](CN)C(=O)N[C@@H](CC(C)C)C(=O)N2C[C@H](O)C[C@H]2C(=O)N[C@@H](Cc2c[nH]c3ccccc23)C(=O)N[C@@H](CCN)C(=O)N[C@@H](Cc2cn(CC(=O)O)c3ccccc23)C(=O)N1C | RP-HPLC | human serum 10% | 18 h | – | serum stability | stable |
| COc1ccc(F)cc1S(=O)(=O)Nc1cnc2c(c1)C(=O)NCCO2 | – | C57BL/6J mice, plasma | oral, 0.1 mg/kg | – | AUC(0-t) | 29.4 ± 7.2 ng‧h/mL |
| COC(=O)C[C@](O)(CCCC(C)(C)OC(C)=O)C(=O)O[C@@H]1C(OC)=C[C@]23CCCN2CCc2cc4c(cc2[C@H]13)OCO4 | – | CD1 mouse, bone marrow | subcutaneous, 1 mg/kg, 2 h | – | tissue concentration | 55.6 ng/mL |
| COc1cc(C(=O)NCCOCCOCCOCCNC(=O)c2ccc([18F])nc2)ccc1NC(=O)C1NC(CC(C)(C)C)C(C#N)(c2ccc(Cl)cc2F)C1c1cccc(Cl)c1F (stereo not shown) | – | athymic male mice, SJSA-1 xenograft | 1 h | baseline: tumour over liver | tumour-to-tissue ratio | 0.82 ± 0.08 |
| C/C=C/C=C/C/C=C/CCCCCCCc1cccc(O)c1O | – | female Kunming mice, tumour-bearing, heart | intravenous, 10 mg/kg, 8 h | – | tissue concentration | 4040 ± 320 ng/g |
| CSCC[C@H](NC(=O)[C@H](CC(N)=O)NC(=O)[C@@H](N)Cc1ccccc1)C(=O)N[C@@H](CCC(N)=O)C(=O)N[C@@H](C)C(=O)N[C@@H](CCC(N)=O)C(=O)N[C@@H](CCCNC(=N)N)C(=O)N[C@@H](CCCNC(=N)N)C(=O)N[C@@H](Cc1ccccc1)C(=O)N[C@@H](Cc1ccc(O)cc1)C(=O)N[C@@H](CCC(=O)O)C(=O)N[C@@H](C)C(=O)N[C@@H](CC(C)C)C(=O)N[C@@H](Cc1c[nH]cn1)C(=O)N[C@@H](CC(=O)O)C(=O)NCC(=O)NCC(=O)NCC(=O)NCC(=O)N[C@@H](CO)C(=O)N[C@@H](C)C(=O)N[C@@H](CCC(=O)O)C(=O)N[C@@H](C)C(=O)N[C@@H](CCC(=O)O)C(=O)N[C@@H](C)C(=O)N[C@@H](CCCCN)C(=O)N[C@@H](C)C(=O)N[C@@H](CCCCN)C(=O)N[C@@H](C)C(=O)N[C@@H](CCC(=O)O)C(=O)N[C@@H](C)C(=O)N[C@@H](CCC(=O)O)C(=O)N[C@@H](C)C(=O)N[C@@H](CCCCN)C(=O)N[C@@H](C)C(=O)N[C@@H](CCCCN)C(=O)O | – | EAK peptide fibrils | overnight, 37 °C, PBS, together with: EAK to compound ratio 20:1 | – | incorporation into fibrils | 58% |
| OC1CCN(c2ncc(-c3cc4ccc([18F])cc4[nH]3)cn2)CC1 | dynamic PET | Sprague-Dawley rats, both sexes, whole brain | intravenous, dose not given, 120 min | – | brain radioactivity | 0.4 SUV |
| N=C(N)NCc1ccc(C(=O)NCCCC[C@H](NC(=O)N[C@@H](CCC(=O)O)C(=O)O)C(=O)O)cc1[211At] | – | SCID mouse, PC-3 xenografts, kidneys | 4 h | – | tissue uptake | 77.7 ± 38.8 %ID/g |
| O=C([O-])C[N+]12CC(=O)[O][Re-2]1[O]P(=O)([O-])C2.[C-]#[O+].[C-]#[O+].[C-]#[O+] (stereo not shown) | HPLC | aqueous solution | 1 d, pH 1, room temperature | – | isomer fraction at equilibrium | 26% |
| COCCOCCOCCOc1ccc(/C=C/C2=[N+]3C(=C(c4cc(OC)cc(OC)c4)c4c(C)c(I)c(/C=C/c5ccc(OCCOCCOCCOC)cc5)n4[B-]3(F)F)C(C)=C2I)cc1 | – | DMSO | – | baseline: methylene blue | fluorescence quantum yield | 0.2 and 0.17 |
| CCCCCCCCCCCCCCCCCC(=O)Nc1ccn(C2OC(CO)C(O)C2(F)F)c(=O)n1 (stereo not shown) | – | mice, serum | iv, 30 mg/kg gemcitabine equivalent, 24 h | – | ALT | 172 ± 22 mU/mL |
| CC(C)[C@H](NC(=O)CNC(=O)[C@H](CCC(N)=O)NC(=O)[C@H](C)N)C(=O)O | – | human | 3 mg/kg single dose | – | subjects with mild adverse events | 33.3% |
| CN[C@](C)(C[18F])C(=O)O | – | SCID mouse SK-OV-3 xenograft, brain | 15 min, post injection | – | tissue uptake | 0.3 ± 0.1 %ID/g |
| [2H]C([2H])([2H])C([2H])([2H])C([2H])([2H])OC(C(=O)OC1CCNCC1)(c1ccccc1)c1ccccc1 | refers to: rhinorrhea | healthy Japanese male | oral, 15 mg, 16 days, multiple ascending dose | – | adverse events | 0% |
